Assay results from different studies.
Lines come from different studies, so protocols differ. “And” joins repeats or separate records; there may be more than shown. ± marks the error that the study gave.

| Structure (SMILES) | cell line | test | conditions | scale | measurement | result |
| --- | --- | --- | --- | --- | --- | --- |
| CN1CCN(CCCN2c3ccccc3Sc3ccc(C(F)(F)F)cc32)CC1 | THLE-2 transduced with Ad-UGT1A4 | cytotoxicity | 48 h | – | IC50 | 110 ± 9.7 µM |
| N#Cc1ccc2cc[nH]c2c1 | uninfected HCT-8 | cytotoxicity, Hoechst nuclei count | – | – | EC50 | 1100 µM |
| COc1c(-c2ccccc2)oc2ccccc2c1=O | BEAS-2B | enzyme activity, inducer, fluorogenic substrate imaging | 10 µM, 24 h | relative to: control | CYP1A1 induction | 0.75 fold |
| CCCC(C(=O)O)c1c(C)nc2ccc(Cl)cc2c1-c1ccccc1 (stereo not shown) | MT-4 | – | – | – | CC50 | 42.2 ± 9.44 µM |
| CC(C)=CCc1cc2c(cc1O)O[C@H](c1ccc(O)cc1)CC2=O | BEAS-2B | enzyme activity, inducer, fluorogenic substrate imaging | 10 µM, 24 h | relative to: control | CYP1A1 induction | 0.78 fold |
| COc1ccc(N/N=C/c2ccc(-c3cccc(/C=N/Nc4ccc(OC)cc4)c3)cc2)cc1 | BEAS-2B | – | 15.5 µg/mL | – | cytotoxicity | not toxic |
| O=C1CCc2ccccc2O1 | PH5CH8 hepatocytes | high-content cell count | 72 h, oleate lipid loaded | – | CC50 | > 10 µM |
| CC(C)(c1ccc(O)cc1)c1ccc(O)cc1 | HepG2 spheroids, dissociated | annexin V-FITC/PI flow cytometry | 0.1 µM, 24 h | – | viable cells | 72.9 ± 6.29% |
| Oc1cccc2[nH]ccc12 | uninfected HCT-8 | cytotoxicity, Hoechst nuclei count | – | – | EC50 | > 10000 µM |
| CC(=O)Nc1cccc(-n2c(=O)n(C3CC3)c(=O)c3c(Nc4ccc(I)cc4F)n(C)c(=O)c(C)c32)c1 | COLO 205 | resazurin | 6.25 nM, 72 h, unit not given | relative to: DMSO | viability | 0.103 and 0.109 |
| O=c1ncn2nc(Sc3ccc(F)cc3F)ccc2c1-c1c(Cl)cccc1Cl | iCell cardiomyocytes hiPSC-derived | impedance | concentration not given, 24 h | relative to: vehicle | cell index | 103% |
| C[C@H]1[C@H](OC(=O)CCC(=O)O)O[C@@H]2O[C@@]3(C)CC[C@H]4[C@H](C)CC[C@@H]1[C@@]24OO3 | MV4-11 cells | CellTox Green | 24 h | – | lowest cytotoxic concentration | 1 µM |
| Cc1c[nH]c2ccccc12 | uninfected HCT-8 | cytotoxicity, Hoechst nuclei count | – | – | EC50 | 1630 µM |
| Cn1cnc([N+](=O)[O-])c1Sc1ccccc1C(=O)NCCn1cc(C(=O)NCc2ccccn2)c(=O)c2cc3c(cc21)OCO3 | PHA-P-stimulated PBMC pooled | cytotoxicity, XTT | 7 days | – | TC50 | > 100 µM |
| Cc1cnc(Nc2ccc(OCCN3CCCC3)cc2)nc1Nc1cccc(S(=O)(=O)NC(C)(C)C)c1 | iCell cardiomyocytes hiPSC-derived | impedance | concentration not given, 24 h | relative to: vehicle | cell index | 96.7% |
| COc1cc(O)cc2c1C(=O)C[C@@H](c1ccccc1)O2 | BEAS-2B | enzyme activity, inducer, fluorogenic substrate imaging | 10 µM, 24 h | relative to: control | CYP1A1 induction | 1.11 fold |
| N#Cc1cccc2[nH]ccc12 | uninfected HCT-8 | cytotoxicity, Hoechst nuclei count | – | – | EC50 | 1330 µM |
| COc1ccc(-c2oc3c(CC=C(C)C)c(O)cc(O)c3c(=O)c2O)cc1 | BEAS-2B | enzyme activity, inducer, fluorogenic substrate imaging | 10 µM, 24 h | relative to: control | CYP1A1 induction | 1.18 fold |
| CCN(CC)c1ccc2c(-c3ccccc3C(=O)O)c3ccc(=[N+](CC)CC)cc-3oc2c1 | PH5CH8 hepatocytes | high-content cell count | 72 h, oleate lipid loaded | – | CC50 | > 10 µM |
| CC(C)C(=O)Nc1ccc([N+](=O)[O-])c(C(F)(F)F)c1 | THLE-2 transduced with Ad-UGT1A4 | cytotoxicity | 48 h | – | IC50 | 32 ± 3.8 µM |

| Structure (SMILES) | cell line | test | conditions | scale | measurement | result |
| --- | --- | --- | --- | --- | --- | --- |
| O=c1c(-c2ccccc2)coc2ccccc12 | BEAS-2B | enzyme activity, inducer, fluorogenic substrate imaging | 10 µM, 24 h | relative to: control | CYP1A1 induction | 0.78 fold |
| COc1ccc(-c2nn(-c3ccccc3)cc2C=Nc2c(N)nc(S)nc2O)cc1 | CCRF-CEM | cytotoxicity, differential nuclear staining | 48 h | – | CC50 | 18.1 ± 0.96 µM |
| CCCS(=O)(=O)Nc1ccc(F)c(C(=O)c2c[nH]c3ncc(Cl)cc23)c1F | MC3T3-E1 | – | 100 µM | relative to: control | cell proliferation | 83.2% |
| CCCC(=O)OCSc1ccccc1C(=O)NCCn1ccc(=O)c2cc(OC)ccc21 | PHA-P-stimulated PBMC pooled | cytotoxicity, XTT | 7 days | – | TC50 | > 100 µM |
| Cc1noc(C)c1Cn1cc(N2C(=O)CN(Cc3cccc(O)c3)C2=O)cn1 | human blood lymphocytes | – | 1200 µg/mL, 3 h, with 5% S9 | – | aberrant cells without gaps | 3.9% |
| Cc1cc(O)c2c(c1)C(=O)c1cccc(O)c1C2=O | BEAS-2B | enzyme activity, inducer, fluorogenic substrate imaging | 10 µM, 24 h | relative to: control | CYP1A1 induction | 1.59 fold |
| CCCC(=O)OCSc1ccccc1C(=O)NCCn1cc(C(=O)NCc2ccccn2)c(=O)c2cc3c(cc21)OCO3 | PHA-P-stimulated PBMC pooled | cytotoxicity, XTT | 7 days | – | TC50 | > 100 µM |
| O=c1c2cc(O)c(O)cc2oc2cc(O)c([C@@H]3O[C@H](CO)[C@@H](O)[C@H](O)[C@H]3O)c(O)c12 | BEAS-2B | enzyme activity, inducer, fluorogenic substrate imaging | 10 µM, 24 h | relative to: control | CYP1A1 induction | 0.78 fold |
| CCCC(=O)OCSc1ccccc1C(=O)NCCn1cc(C(=O)NCc2cccc(C)n2)c(=O)c2cc3c(cc21)OC(F)(F)O3 | PHA-P-stimulated PBMC pooled | cytotoxicity, XTT | 7 days | – | TC50 | > 100 µM |
| CCS(=O)(=O)Oc1ccc(C=NNC(=O)CSc2nc3ccc(Cl)cc3c(=O)n2-c2ccccc2)cc1 | BJ1 | MTT | 100 µM | – | cytotoxicity | 68.1 ± 4.48% |
| CCCC(CCC)NC(=O)c1ccc2c(c1)OCO2 | CHO-WBL | – | 0.021 mg/mL, 3 h, with rat liver S9 | – | cells with aberrations | 0.5% |
| c1ccc2[nH]ccc2c1 | uninfected HCT-8 | cytotoxicity, Hoechst nuclei count | – | – | EC50 | 3720 µM |
| COc1cccc(-c2n[nH]c(SCc3ccccn3)n2)c1OC | CHO-WBL | – | 200 µg/mL, 3 h, added: rat liver S9 | – | micronuclei per binucleated cell | 0.025 |
| Cc1cccc2[nH]ccc12 | uninfected HCT-8 | cytotoxicity, Hoechst nuclei count | – | – | EC50 | 1910 µM |
| Nc1nc(O)c2ncn(COC(CO)CO)c2n1 | HEL or HeLa cells | cell viability | 3 (unit not given) | – | CC50 | > 100 µM |
| CCc1ccc(-c2nc(CSCC(=O)NCCc3ccccc3)c(C)o2)cc1 | PH5CH8 hepatocytes | high-content cell count | 72 h | – | CC50 | > 10 µM |
| Cc1cc(C(=O)NC(C)(C)COc2cccc3c2C(N)=NS(=O)(=O)N3)cc(C)n1 | human peripheral blood lymphocytes | CBPI, micronucleus test | 2 µg/mL, 4 h, with rat liver S9 | relative to: vehicle | cytotoxicity | 13% |
| O=C1c2c(O)cc(O)cc2O[C@H](c2cc(O)c(O)c(O)c2)[C@H]1O | BEAS-2B | enzyme activity, inducer, fluorogenic substrate imaging | 10 µM, 24 h | relative to: control | CYP1A1 induction | 1.54 fold |
| C/C(=N\Nc1ccc(F)cc1)c1ccc(-c2ccc(/C(C)=N/Nc3ccc(F)cc3)cc2)cc1 | BEAS-2B | – | 15.5 µg/mL | – | cytotoxicity | not toxic |
| Cc1ncc([N+](=O)[O-])n1CCO | LMH chicken hepatoma | – | – | – | CC50 | 199 µM |

Some of these lines once more:
| Structure (SMILES) | cell line | test | conditions | scale | measurement | result |
| --- | --- | --- | --- | --- | --- | --- |
| CCCC(=O)OCSc1ccccc1C(=O)NCCn1ccc(=O)c2cc(OC)ccc21 | PHA-P-stimulated PBMC pooled | cytotoxicity, XTT | 7 days | – | TC50 | > 100 µM |
| Nc1nc(O)c2ncn(COC(CO)CO)c2n1 | HEL or HeLa cells | cell viability | 3 (unit not given) | – | CC50 | > 100 µM |
| CCCS(=O)(=O)Nc1ccc(F)c(C(=O)c2c[nH]c3ncc(Cl)cc23)c1F | MC3T3-E1 | – | 100 µM | relative to: control | cell proliferation | 83.2% |
| O=C1c2c(O)cc(O)cc2O[C@H](c2cc(O)c(O)c(O)c2)[C@H]1O | BEAS-2B | enzyme activity, inducer, fluorogenic substrate imaging | 10 µM, 24 h | relative to: control | CYP1A1 induction | 1.54 fold |
